Assay results collected from several papers.
Every numbered part comes from another study and shows a few of its results, in no order. Positions count from the first letter of the parent shown.

Series 1 — technique: protein binding microarray; form: double-stranded DNA, one strand shown; medium: in vitro; tested at: not given; reference: not given; reading: higher = stronger binding; measurement: E-score
Target: Histone acetyltransferase KAT6A, winged helix 1, GST fusion (KAT6A, Homo sapiens, UniProt Q92794, residues 1-85)
Notes: 8-mer, flanks averaged, mean of 2 arrays, mostly near background
Residues (chain): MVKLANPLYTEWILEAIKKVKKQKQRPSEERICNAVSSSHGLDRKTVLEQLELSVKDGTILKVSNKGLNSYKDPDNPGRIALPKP
AGTAAGCA: -0.214
CAGTATGC: 0.0736
CAAGGGGC: -0.0358
GGGCGCAC: 0.253
AAAACTCC: -0.0465
ATGGATGC: -0.135
GTATGGTA: -0.0864
AACGATGG: -0.119
CCCGCCAC: 0.235
CGCTGCCA: 0.0828
ACCGTCCG: 0.343
CTCCGATA: 0.0621
CCGGACAG: 0.0406
CATCACTC: -0.0792
AGGGTACC: -0.017
ACAACTCC: -0.0823
TTGATAAA: -0.129
ACTTCTAA: -0.0689
CCTGTCTA: -0.18
AGTGAATG: 0.01
CAAGTTAA: -0.2

Series 2 — technique: Spec-seq; form: double-stranded DNA, one strand shown; medium: in vitro; tested at: not given; notes: whole probe, mean of replicates; reference: not given; reading: lower = stronger binding; measurement: relative binding energy; all sequences stand within: GAGTCGTCTCGTCAGCAC … CCGTAGAGCACTCAGGTC
Target: Transcription factor SOX-2, HMG box (Sox2, Mus musculus, UniProt P48432, residues 41-119)
Chain of UniProt P48432 (41-119, looked up): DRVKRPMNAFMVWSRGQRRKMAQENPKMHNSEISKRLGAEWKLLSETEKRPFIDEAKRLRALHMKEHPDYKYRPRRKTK
CATTCCC: 0.606 ln ratio
CATCCAA: 0.402 ln ratio
CATACAT: -1.14 ln ratio
TTTGGTT: 0.172 ln ratio
CATGGAT: -0.0251 ln ratio
CATATCG: 0.293 ln ratio
CATATAT: -0.277 ln ratio
TTTAGTT: -0.332 ln ratio
GGCGGTT: 1.5 ln ratio
CATTCAC: -1.4 ln ratio

Series 3 — technique: RNA Bind-n-Seq; form: RNA; medium: in vitro; tested at: 1 µM; notes: whole 134-nt RNA, ends assumed; added: 150 mM KCl; reference: input library; reading: higher = stronger binding; measurement: log2 enrichment
Target: Ras GTPase-activating protein-binding protein 1, RRM domain (G3BP1, Homo sapiens, UniProt Q13283)
Chain of UniProt Q13283 (whole entry, looked up): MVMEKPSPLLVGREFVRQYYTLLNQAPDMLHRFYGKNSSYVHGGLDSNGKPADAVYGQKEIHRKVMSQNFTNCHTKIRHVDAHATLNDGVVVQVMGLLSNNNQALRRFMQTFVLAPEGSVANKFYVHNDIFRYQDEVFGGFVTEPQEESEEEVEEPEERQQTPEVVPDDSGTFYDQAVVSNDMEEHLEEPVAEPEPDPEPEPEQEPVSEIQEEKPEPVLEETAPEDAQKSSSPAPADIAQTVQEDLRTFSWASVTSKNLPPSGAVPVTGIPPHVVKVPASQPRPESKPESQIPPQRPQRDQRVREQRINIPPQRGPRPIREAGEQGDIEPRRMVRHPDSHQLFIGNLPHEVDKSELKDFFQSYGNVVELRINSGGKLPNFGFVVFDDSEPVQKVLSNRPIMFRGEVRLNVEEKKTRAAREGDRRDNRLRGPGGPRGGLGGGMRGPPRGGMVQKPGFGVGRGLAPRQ
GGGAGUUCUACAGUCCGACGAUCCCAGAGCCAGAGAGCUUGGGCCCUGGGACGCCUGGGUUCCCCGAGCAGGAGGAAGACGAACUUCACCGCACCCUGGGCGUGGAGCGGUUUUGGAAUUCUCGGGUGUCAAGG: -0.621
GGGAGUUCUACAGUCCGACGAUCCACAGACAACACGCACCCACACAGACACUGAGGGAAGGGGUUGGGAUGGGGACAGGGUGCACAGCAGGGCGGGGUAGGACCCCAGCCCCUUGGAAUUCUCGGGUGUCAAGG: 0.0701
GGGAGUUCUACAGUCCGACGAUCCCUGUGCUACACAUCGUAUGUACCGAAUCAAACCCCCCCAAACCCCCCCAAACCCCCAAAAAAGUAUUAUGUUACGCCGUUCGGAUCUGCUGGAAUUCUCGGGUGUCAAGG: -0.221
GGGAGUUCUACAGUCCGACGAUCCCUGUGCUACACAUCGUAUGUACCGAAUCGGGGUUUUUGGGGAAAAAGGGGUUUUUGGGGAAAGUAUUAUGUUACGCCGUUCGGAUCUGCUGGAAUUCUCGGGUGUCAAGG: 1.1
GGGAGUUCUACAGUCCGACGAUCAAGUCCUGUGCUACACAUCGUAUGUACCGAAUCGGGAGGGUUUUUGGGAAAAAGGGAAAGUAUUAUGUUACGCCGUUCGGAUCUGCACUUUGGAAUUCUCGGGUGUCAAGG: 0.557
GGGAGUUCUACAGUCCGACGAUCUCCUGUGCUACACAUCGUAUGUACCGAAUCGGAAAAAAGGGAAAAAAGGAAAAAAGGGGAAAGUAUUAUGUUACGCCGUUCGGAUCUGCAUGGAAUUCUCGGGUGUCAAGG: 0.0785
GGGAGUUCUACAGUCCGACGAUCCCUCAAGUCCUGUGCUACACAUCGUAUGUACCGAAUCGGUUUUUGGAGGUGGAAAGUAUUAUGUUACGCCGUUCGGAUCUGCACUUCCAGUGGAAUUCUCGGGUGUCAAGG: -0.18
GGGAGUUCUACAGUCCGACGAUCCCUCAAGUCCUGUGCUACACAUCGUAUGUACCGAAUCGGCGGGCGGGCGGGGAAAGUAUUAUGUUACGCCGUUCGGAUCUGCACUUCCAGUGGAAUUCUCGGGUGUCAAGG: -0.0417
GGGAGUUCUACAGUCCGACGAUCCACAGACAACACGCACCCACACAGACACAGAGGGAAGGGGUUGGGAUGGGGACAGGGUGCACACCAGGGCGGGGUAGGACCCCAGCCCCUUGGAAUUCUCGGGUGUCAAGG: 0.145
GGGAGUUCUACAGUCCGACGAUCUUCGUUUUUUUCCUUAGUCUGAAGUUGCAGCCGGAGUGAAGAAGAGCGGACCGCUGCCCAGUGCUGAGGUAGAGUGUCGGAUCUGUUUUCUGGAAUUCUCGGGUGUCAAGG: -0.321
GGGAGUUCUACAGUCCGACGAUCGUCCUGUGCUACACAUCGUAUGUACCGAAUCGGGGAGGGGAAAAAGGGGUUUUUGGGGAAAGUAUUAUGUUACGCCGUUCGGAUCUGCACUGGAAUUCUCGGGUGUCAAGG: 1.03
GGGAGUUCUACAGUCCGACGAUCUAACUUUAGAGGACGAUCUGAUGGAUAUGGCAGUGGACGUGGAUUUGGGGAUGGCUAUAAUGGGUAUGGAGGAGGACCUGGAGGUGGCAAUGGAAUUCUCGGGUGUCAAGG: -0.399
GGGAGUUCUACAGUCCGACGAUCUCCUCAAGUCCUGUGCUACACAUCGUAUGUACCGAAUCGGAGGAGGGGAGGAAAGUAUUAUGUUACGCCGUUCGGAUCUGCACUUCCAGCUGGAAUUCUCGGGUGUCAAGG: -0.276
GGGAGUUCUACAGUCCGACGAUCGUCCUGUGCUACACAUCGUAUGUACCGAAUCGGAAAAAAGGAAAAAAGGGAAAAAAGGAAAGUAUUAUGUUACGCCGUUCGGAUCUGCACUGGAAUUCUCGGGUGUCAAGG: 0.0908

Series 4 — technique: DHFR PCA, deep sequencing; medium: yeast; added: (+)-ABA 710 µM; reference: wild-type fitted maximum; reading: higher = stronger binding; measurement: relative binding score
Target: ABI1, truncated, D143A, DHFR fusion (Arabidopsis thaliana)
Notes: methotrexate growth selection, single substitutions
Starting sequence: PYL1, truncated, DHFR fusion (Arabidopsis thaliana); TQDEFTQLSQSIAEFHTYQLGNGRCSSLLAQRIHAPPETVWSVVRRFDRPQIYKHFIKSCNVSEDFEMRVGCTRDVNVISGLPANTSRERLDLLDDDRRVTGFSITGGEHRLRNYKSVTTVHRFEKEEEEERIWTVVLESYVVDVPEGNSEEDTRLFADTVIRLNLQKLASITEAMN
E67L: 96.8%
G108F: 19.5%
R98I: 102%
R46Y: 74.2%
D75N: 97.4%
L28G: 54.4%
E151Y: 95.4%
S150L: 87.6%
V100M: 108%
E130S: 112%
D97Q: 114%

Series 5 — target: FOSB, bZIP domain (human); technique: DHFR protein complementation; medium: yeast; reference: wild-type JUN-FOS pair; reading: higher = stronger binding; measurement: binding fitness
Notes: single substitutions, most at no-binding floor
Starting sequence: JUN, bZIP domain (human); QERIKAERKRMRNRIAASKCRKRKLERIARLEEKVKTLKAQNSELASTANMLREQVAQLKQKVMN; partner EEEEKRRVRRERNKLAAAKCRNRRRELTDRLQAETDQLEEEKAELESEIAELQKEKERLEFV
L45Y: -0.646 natural log
E54L: -0.279 natural log
L38T: -1.03 natural log
K34L: -0.171 natural log
A49S: -0.594 natural log
L52K: -0.968 natural log
T37D: -0.136 natural log
A29T: -0.136 natural log
E32W: -0.377 natural log
A29C: -0.373 natural log
R30P: -0.24 natural log
K39V: -0.493 natural log
S47H: -0.0541 natural log
S47T: -0.127 natural log

Series 6 — technique: RNA Bind-n-Seq; form: RNA; medium: in vitro; tested at: 365 nM; reference: no-protein control; reading: higher = stronger binding; measurement: RBNS enrichment (R)
Target: RNA binding protein fox-1 homolog 2, RRM domain, GST-SBP tag (RBFOX2, Homo sapiens, UniProt O43251-10, residues 100-194)
Notes: natural RNA segment, single round, ends assumed
Target sequence (chain): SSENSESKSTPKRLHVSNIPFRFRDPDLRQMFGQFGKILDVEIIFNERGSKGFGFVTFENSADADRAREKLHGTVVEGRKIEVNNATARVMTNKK
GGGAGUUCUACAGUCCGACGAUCCAGAGAUUCCUGACCACUGAUCAUGCGGCCAGGAAGGGGGACCAAGAGUAAACCCCAUCUUAAUUACAAGAGAAAAUUUUUUUCUUUUUCUCGUGUGUGUGUGUGUGUGUUGGAAUUCUCGGGUGCCAA: 0.863
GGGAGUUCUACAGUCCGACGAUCUCACAAUACUAAAGGGAAAAAAUGGAUUCAAAGCUAGGAUUUCAGGGCCCAGCAGUGUUCCUCCAUCAGCAUGUUAGACAACUACACAGUAUGUUGUUAGUUUUGAAAGAUGGAAUUCUCGGGUGCCAA: 10.7
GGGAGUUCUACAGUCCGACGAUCGUAAUAUCAGUGUAAGUAAAAUCCUGAUUCCAUAAACCUGGUUGUAUUUAAAACAAAAAACAAAACUACAAUGAAACUUGGGAGUCCUUUUCAUGUAGAGGAAGGUUAUCUGGAAUUCUCGGGUGCCAA: 0.555
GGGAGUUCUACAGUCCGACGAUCUCCCUUGUACCAGAGGGCGGCACCGUGGAAAUUCUGUUUUCCCUGUAGCAUAUUGUGUUGGAUUGCAUUACUGGCAGAGAAAGGACAAGGUGCCAUUCAAGUCCUAGGGUUGGAAUUCUCGGGUGCCAA: 1.12
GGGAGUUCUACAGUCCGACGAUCCUCAAAAAGUCUGUGGUUCAUUUCCAGUAUUGUGAAUAUUUAGUUUAUGUGGCCGUUUCUUUGUUUCUUUGAACAGUGGGAUUUUCAGUGAAAAAGUACCCUCUUUUUCAUGGAAUUCUCGGGUGCCAA: 1.01
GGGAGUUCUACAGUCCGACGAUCUCACACCAUUAGGUGAUGCUUUGGACAGAACAGAGUAUUUUCAUCUUGUGUUUAAAGCAAUUCCUUGGCUUCGGCUCCUCACCACUUUCUAUGCCAGUCUCCCAUUUAUGUGGAAUUCUCGGGUGCCAA: 0.437
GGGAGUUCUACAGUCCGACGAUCGGCUUUCUAAAAGUAUGAAACAUCCUUCAACUGGGCUCUCUUGUUAAUAGGACAUCAUAUGGUAAUAGACUGGUUUGACUAUAUUGUUAGCUGCCACAGUAAGCAGGUCAUGGAAUUCUCGGGUGCCAA: 0.271
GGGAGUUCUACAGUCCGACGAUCUCAUUGAAUUGCUGAAGUAAUGAUAAUGCCAUGAACCAGGAGAAGAUGGUUGUGGGGGUUUCUAGGAAGCAGCUGCUGUGACAGGCCAAUCCCAGGCUUGCCCCCGAGCCUGGAAUUCUCGGGUGCCAA: 0.677
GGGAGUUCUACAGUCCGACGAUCAGGAGCGGGAGGGUUCCGCCACUCCAGUUUUCUCCUCUGCUUCUUUGCCUCCCUCAGAUAGAAAACAGCCCCCACUCCAGUCCACUCCUGACCCCUCUCCUCAAGGGAAGUGGAAUUCUCGGGUGCCAA: 0.504
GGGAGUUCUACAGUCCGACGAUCGCUAAACAAUCUCCCCUCCCUCACCCUACUUGCACUGCUGUGGGUUUUUUAAAGAGAAACAGAACCAGACUCCUUUCCCGGCCCUCCAAACAUGUAUUCUGUGCGAUAACUGGAAUUCUCGGGUGCCAA: 0.779
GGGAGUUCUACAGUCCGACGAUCUUCCCUCCAUCCACCCCUCUGGCACCUGGGUUGGUCUAAUCCUAGUUUGCUGUGGCCUUCCCGGUUGUGAGAGCCUGUGAUCCUUAGAUGUGUCUCCUGUUUCAGACCAGUGGAAUUCUCGGGUGCCAA: 0.674
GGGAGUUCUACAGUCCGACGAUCUUUACUGUGCAUGUCUCUGUACAAAGUGUACCUCUGGAAGCUGCCAAGUGAUAACACUGCUUUCUUAUACACUGGGAUCAUUGUCACUUGAAAAAAAAAACAUUAUUGUGUGGAAUUCUCGGGUGCCAA: 1.11

Series 7 — target: CCNA2, cyclin fold, Cln2 fusion (human); technique: yeast growth competition, sequencing; medium: yeast; notes: strong parent motif; reference: not given; reading: higher = stronger binding; measurement: normalised enrichment score
Starting sequence: WEE1 docking peptide (human); CTLRQKLIFSPCS
CTLRQKLIFSPCA [S13A]: 0.877
CALRQKLIFSPCS [T2A]: 1.33
CTLRQALIFSPCS [K6A]: 0.491
CTLRQKAIFSPCS [L7A]: 0.364
CTLRQKLIFSPAS [C12A]: 1.17
CTLRQKLIFAPCS [S10A]: 1.19
